{"data": "Measured values from different studies", "note": "Each numbered part is a random draw from the data of one study; scales do not carry over between parts."}
{"data": "Block 1", "target": "Sal-like protein 4, full length isoform B (SALL4, Homo sapiens, UniProt Q9UJQ4-2, residues 1-616)", "technique": "universal PBM", "form": "double-stranded DNA, one strand shown", "medium": "in vitro", "concentration": "not given", "notes": "8-mer, flanks averaged, mean of replicates", "direction": "higher = stronger binding"}
{"Sequence": "CCTACTAG", "E-score": -0.0172}
{"Sequence": "AAGTTTGT", "E-score": 0.141}
{"Sequence": "AATGCAGA", "E-score": 0.168}
{"Sequence": "CCTTATTC", "E-score": 0.113}
{"Sequence": "CATTCCAG", "E-score": -0.0338}
{"Sequence": "CCAGACCC", "E-score": -0.319}
{"Sequence": "CACTGGTA", "E-score": -0.0157}
{"Sequence": "ACCGTATG", "E-score": 0.0511}
{"Sequence": "AAACGCAT", "E-score": 0.0798}
{"Sequence": "AGCCTCAG", "E-score": -0.215}
{"Sequence": "GACGACTA", "E-score": -0.0479}
{"Sequence": "GACGCGGA", "E-score": -0.258}
{"Sequence": "GGAACAAC", "E-score": -0.0889}
{"Sequence": "CTGCACGC", "E-score": -0.26}
{"Sequence": "TCAATAGA", "E-score": 0.16}
{"Sequence": "ACTTTTCC", "E-score": 0.158}
{"Sequence": "ATGCATTG", "E-score": 0.108}
{"Sequence": "CGACGCCA", "E-score": -0.204}
{"Sequence": "CACTATAA", "E-score": 0.21}
{"Sequence": "CTATTGAG", "E-score": 0.0595}
{"Sequence": "GGAACGCA", "E-score": -0.26}
{"Sequence": "ATCCGCAT", "E-score": -0.0458}
{"Sequence": "ACAGGACG", "E-score": -0.209}
{"Sequence": "CCAGAAGA", "E-score": 0.0658}
{"Sequence": "GTCGAGGA", "E-score": -0.156}
{"data": "Block 2", "target": "Interferon regulatory factor 7, full length, phosphomimetic (IRF7, Homo sapiens, UniProt Q92985, residues 1-503, S101K/S471D/S472D/S475D/S476D/S477D/S483D/S484D/S487D)", "technique": "protein-binding microarray", "form": "double-stranded DNA, one strand shown", "medium": "in vitro", "concentration": "250 nM", "notes": "60-bp whole probe", "together with": "salmon DNA 0.4 mg/ml", "baseline": "random background probes", "direction": "higher = stronger binding", "constant ends, left off below": "GCCTAGCAC … GTCTTGATTCGCTTGACGCTGCTG", "Residues (chain)": "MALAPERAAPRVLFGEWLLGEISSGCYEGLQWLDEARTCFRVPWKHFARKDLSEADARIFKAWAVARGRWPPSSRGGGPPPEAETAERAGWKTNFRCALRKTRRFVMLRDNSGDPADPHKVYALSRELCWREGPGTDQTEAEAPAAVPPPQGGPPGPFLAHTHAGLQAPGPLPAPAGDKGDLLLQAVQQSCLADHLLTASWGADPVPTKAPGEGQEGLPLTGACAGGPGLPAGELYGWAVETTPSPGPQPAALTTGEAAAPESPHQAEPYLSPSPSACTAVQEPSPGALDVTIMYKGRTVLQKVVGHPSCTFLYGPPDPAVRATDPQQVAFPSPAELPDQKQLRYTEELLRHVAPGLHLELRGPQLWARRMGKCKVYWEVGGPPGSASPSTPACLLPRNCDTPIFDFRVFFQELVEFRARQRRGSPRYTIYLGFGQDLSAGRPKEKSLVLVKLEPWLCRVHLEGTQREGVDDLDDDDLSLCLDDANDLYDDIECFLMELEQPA"}
{"Sequence": "TTAGGTCTCCTTATCCTTTAGTGCTAG", "log fluorescence": "0.693 z-score"}
{"Sequence": "GACGGTCTCGGTATCGGGCCGTGCTAG", "log fluorescence": "1.34 z-score"}
{"Sequence": "TTAGGACTGGTTCTCGGTTAGTGCTAG", "log fluorescence": "1.42 z-score"}
{"Sequence": "GACGAACTGGGAACTGGAGACGTGCTA", "log fluorescence": "-0.253 z-score"}
{"Sequence": "GACGGGATCCTTTTCCTGACGTGCTAG", "log fluorescence": "0.69 z-score"}
{"Sequence": "TCAACTTTCTATGTCTGACTGTGCTAG", "log fluorescence": "0.451 z-score"}
{"Sequence": "GACGATATCAGTATCGACACGTGCTAG", "log fluorescence": "0.0726 z-score"}
{"Sequence": "GACGGAGTGCTTATCCTGACGTGCTAG", "log fluorescence": "-0.281 z-score"}
{"Sequence": "AACGATTTCGGGTATCGAGACGTGCTA", "log fluorescence": "1 z-score"}
{"Sequence": "GACGGTATCCTACGGCTGACGTGCTAG", "log fluorescence": "-0.511 z-score"}
{"Sequence": "GACGGTCTCGGTTTCGGGACGTGCTAG", "log fluorescence": "7.65 z-score"}
{"Sequence": "TTTGGACTGGGTTTCGGTTAGTGCTAG", "log fluorescence": "6.63 z-score"}
{"Sequence": "GACGGTCTCCGTCTCCTGACGTGCTAG", "log fluorescence": "-0.132 z-score"}
{"Sequence": "GACGATTTCGGGTTTCAAGACGTGCTA", "log fluorescence": "1.85 z-score"}
{"Sequence": "TCATGCTTTCTTTTATGACTGTGCTAG", "log fluorescence": "0.333 z-score"}
{"Sequence": "GACGATTTCAGCTTCGAGACGTGCTAG", "log fluorescence": "0.299 z-score"}
{"Sequence": "GACGGTATCGGGTTTAGGGACGTGCTA", "log fluorescence": "1.07 z-score"}
{"Sequence": "TTAAGTTTCGGTTTCGGTTAGTGCTAG", "log fluorescence": "14.9 z-score"}
{"Sequence": "TCAGCTTTTTTTCCGAGACTGTGCTAG", "log fluorescence": "0.398 z-score"}
{"data": "Block 3", "target": "RNA binding protein fox-1 homolog 2, RRM domain, GST-SBP tag (RBFOX2, Homo sapiens, UniProt O43251-10, residues 100-194)", "technique": "RNA Bind-n-Seq", "form": "RNA", "medium": "in vitro", "concentration": "365 nM", "notes": "natural RNA segment, single round, ends assumed", "baseline": "no-protein control", "direction": "higher = stronger binding", "constant ends, left off below": "GGGAGUUCUACAGUCCGACGAUC … UGGAAUUCUCGGGUGCCAA", "Target sequence (chain)": "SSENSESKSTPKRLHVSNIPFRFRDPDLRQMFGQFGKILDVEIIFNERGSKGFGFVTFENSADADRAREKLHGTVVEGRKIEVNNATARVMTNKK"}
{"Sequence": "GAAGUAUUAUUAAUAUUGCUACAGUGUUAUUAUGAUAUUGUUACUAUUAACCAUGUUGGGUGGAUAGCGGCAGAGCAAAAAGUUUGAAUGGGCUAGAGGUGGGAAGCUUG", "RBNS enrichment (R)": 0.692}
{"Sequence": "CUUUUGAGCAGCGAUUGCUGGAUCAUUGAUCUGUUUGAGGAAGUGUCUGACCUGGGCCUGAGAGCUGGAGAAGGUGCAGAUUCAAAGUGAGCGGCUCCUGAGGAGAGCCG", "RBNS enrichment (R)": 1.84}
{"Sequence": "CAACCUUUGUGGGUCGCCUAAGAGCAUCGCAAACCAGAUAUUUACAUUAUGAUUCAUAACAGUGACAAUCACAGUUAUGAGGUAGAAAGGAAAGGGAUUUUAUGGUUGGG", "RBNS enrichment (R)": 0.429}
{"Sequence": "ACAAGUACAUUGAACAGUAAAAAGUGUAACAGCAAAGUAUAUAUUUGAUGCCUUCUGUCUUUUCAUGAUAAUGUGCUAACAAGUUGUGUUAAUAUUUUACUCAGCCAGAG", "RBNS enrichment (R)": 0.329}
{"Sequence": "AAGCUUAUUAUUUUAUAUCCUUUAGGUAAUAUAUGUAUAUGCUAUAUACAUAUAAUUAUAUACAUAUAUGUAAUCUCAAUUAGGCAAUUUUAAUAGACUUCACAAAAAUA", "RBNS enrichment (R)": 0.565}
{"Sequence": "CCAGGCUGGACAAAGCAGGGGGCUACUUCUCCCUUCCCUCGGUUCCAGUCUUCCCUUUAAAAGCCUGUGGCAUUUUUCCUCCUUCUCCCUAACUUUAGAAAUGUUGUACU", "RBNS enrichment (R)": 0.694}
{"Sequence": "CCCCAACUAAGGUCUGUGUCGCCUUCUUGUAAAUGUUGUAUAUGUUGUAUUUUGUUGGUAAUUAUUUUGGUACUUCUAAGAUGUAUAUUUAUUAAACAGAUUUUUACAGA", "RBNS enrichment (R)": 0.948}
{"Sequence": "ACAAAGCCUCUGAAAGAUGCAUCAUCUCUUCCUCACACCCAUUUAGUGGGGGAUGGGUCCUCUAGACUUGAGGGGCUACCCUGGGAAGCUGCCGUAGCUUCAGCCAGGCA", "RBNS enrichment (R)": 0.319}
{"data": "Block 4", "target": "Histone acetyltransferase KAT6A, winged helix 2, GST fusion (KAT6A, Homo sapiens, UniProt Q92794, residues 85-181)", "technique": "protein binding microarray", "form": "double-stranded DNA, one strand shown", "medium": "in vitro", "concentration": "not given", "notes": "8-mer, flanks averaged, mean of 2 arrays, mostly near background", "baseline": "not given", "direction": "higher = stronger binding", "Target sequence (chain)": "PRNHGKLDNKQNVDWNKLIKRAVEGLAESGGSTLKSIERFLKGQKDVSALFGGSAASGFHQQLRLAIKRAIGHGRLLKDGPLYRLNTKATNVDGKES"}
{"Sequence": "ACCTTTCG", "E-score": -0.00803}
{"Sequence": "CGCCCACG", "E-score": 0.0754}
{"Sequence": "AGTTTGTG", "E-score": 0.0666}
{"Sequence": "AATCTAAC", "E-score": -0.02}
{"Sequence": "TAACAATA", "E-score": -0.115}
{"Sequence": "TATCGGGA", "E-score": -0.109}
{"Sequence": "AGAATATC", "E-score": 0.0316}
{"Sequence": "GTCCAAGA", "E-score": -0.13}
{"Sequence": "ATCTAAAA", "E-score": -0.0289}
{"Sequence": "ACCGCGTG", "E-score": 0.174}
{"Sequence": "GACCATGA", "E-score": -0.0365}
{"Sequence": "CTGTACGA", "E-score": -0.072}
{"Sequence": "GGCCCTAA", "E-score": 0.00556}
{"Sequence": "ACTGCTCC", "E-score": 0.0181}
{"Sequence": "GGTATAGA", "E-score": -0.176}
{"Sequence": "TAAACTCA", "E-score": -0.00822}
{"Sequence": "CCAAGTTA", "E-score": -0.135}
{"Sequence": "AGGAACCT", "E-score": 0.0748}
{"Sequence": "CGATTCTA", "E-score": -0.155}
{"Sequence": "CTTGAATA", "E-score": 0.052}
{"Sequence": "ATAGCTAG", "E-score": -0.157}
{"Sequence": "GACAGCGC", "E-score": 0.158}
{"Sequence": "CTCCCGTA", "E-score": -0.00611}
{"Sequence": "AAGAGTTG", "E-score": -0.0352}
{"Sequence": "AGCTGCCC", "E-score": 0.189}
